Results of several laboratories.
Compare with care: the assays were run in different laboratories. ± gives the spread as reported.
Organism: Escherichia coli

CC1(C)CC[C@]2(C(=O)O)CC[C@]3(C)C(=CC[C@@H]4[C@@]5(C)CC[C@H](O)C(C)(C)[C@@H]5CC[C@]43C)[C@@H]2C1
MIC (NDM-9): 512 µg/mL

CC[C@H](C)[C@H](NC(=O)[C@H](CC(C)C)NC(=O)[C@H](CCCNC(=N)N)NC(=O)[C@@H](N)CCCNC(=N)N)C(=O)N[C@@H](CCCNC(=N)N)C(=O)N[C@@H](CCCCN)C(=O)N[C@@H](CC(C)C)C(=O)N[C@@H](CCCCN)C(=O)NCC(=O)N[C@@H](CC(C)C)C(=O)N[C@@H](CCCCN)C(=O)N[C@@H](CCCCN)C(=O)N[C@@H](Cc1ccc(O)cc1)C(=O)N[C@@H](CC(C)C)C(=O)N[C@@H](Cc1ccc(O)cc1)C(=O)N[C@@H](Cc1ccccc1)C(=O)N[C@@H](CCCCN)C(=O)N[C@@H](CC(C)C)C(=O)N[C@@H](CCC(N)=O)C(=O)N[C@@H](CC(C)C)C(=O)N[C@@H](CC(C)C)C(=O)N[C@@H](CCCCN)C(=O)N[C@@H](CCCCN)C(N)=O
MIC (KCTC 1682, Mueller-Hinton broth; together with: 4.5 mM KCl): 16 µM

CC[C@H](C)[C@H](NC(=O)[C@H](CCCNC(=N)N)NC(=O)[C@H](CCCNC(=N)N)NC(=O)[C@H](CC(C)C)NC(=O)[C@H](CC(N)=O)NC(=O)[C@@H](N)CCCCN)C(=O)N[C@H](C(=O)N[C@@H](CCCNC(=N)N)C(=O)N[C@@H](CCCCN)C(=O)N[C@H](C(=O)N[C@H](C(=O)N[C@@H](Cc1c[nH]cn1)C(=O)N[C@H](C(=O)N[C@H](C(=O)N[C@@H](CCCCN)C(=O)N[C@@H](CCCCN)C(=O)N[C@@H](Cc1ccc(O)cc1)C(=O)NCC(=O)O)[C@@H](C)CC)[C@@H](C)CC)[C@@H](C)CC)[C@@H](C)CC)[C@@H](C)CC
MIC (broth microdilution; NBRC 3972, Mueller-Hinton broth; 24 h, 37 °C): 3.2 µM

CC(C)C[C@@H](NC(=O)CNC(=O)[C@@H](CCCCN)NC(=O)[C@@H](CC(C)C)NC(=O)[C@@H](CCCCN)NC(=O)[C@@H](CCCNC(=N)N)NC(=O)[C@@H](CC(C)C)NC(=O)[C@@H](CC(C)C)NC(=O)[C@@H](CCCNC(=N)N)NC(=O)[C@H](N)CCCNC(=N)N)C(=O)N[C@H](CCCCN)C(=O)N[C@H](CCCCN)C(=O)N[C@H](Cc1ccc(O)cc1)C(=O)N[C@H](CC(C)C)C(=O)N[C@H](Cc1ccc(O)cc1)C(=O)N[C@H](Cc1ccccc1)C(=O)N[C@H](CCCCN)C(=O)N[C@H](CC(C)C)C(=O)N[C@H](CCC(N)=O)C(=O)N[C@H](CC(C)C)C(=O)N[C@H](CC(C)C)C(=O)N[C@H](CCCCN)C(=O)N[C@H](CCCCN)C(N)=O
MIC (KCTC 1682, Mueller-Hinton broth; together with: 4.5 mM KCl): 8 µM

O=C(O)CN(CC(=O)O)CC(=O)O
MIC (NDM-1 producer; 32 µg/mL, MIC of meropenem, together with: meropenem): 0.5 µg/mL

CC(C)C[C@H](NC(=O)[C@@H](NC(=O)[C@H](CCCNC(=N)N)NC(=O)[C@H](CCC(N)=O)NC(=O)[C@H](Cc1ccccc1)NC(=O)[C@H](Cc1ccc(O)cc1)NC(=O)[C@H](CC(N)=O)NC(=O)[C@H](Cc1c[nH]c2ccccc12)NC(=O)[C@@H](NC(=O)[C@H](CCCNC(=N)N)NC(=O)[C@H](CCCCN)NC(=O)[C@@H](N)Cc1ccccc1)C(C)C)C(C)C)C(=O)N[C@H](C(=O)N[C@@H](CCCCN)C(=O)N[C@@H](CCCCN)C(=O)N[C@@H](Cc1ccc(O)cc1)C(=O)N[C@@H](C)C(N)=O)C(C)C
MIC (broth dilution; ATCC 25922, Mueller-Hinton broth; 24 h, 37 °C): 50 µM

C[C@@H](O)[C@H]1C(=O)N2C(C(=O)O)=C(S[C@@H]3CN[C@H](C(=O)N(C)C)C3)[C@H](C)[C@H]12
MIC (NCCP 16044 carbapenem-resistant, Mueller-Hinton broth; 16 h, 37 °C): 32 µM

CC[C@H](C)[C@H](NC(=O)[C@H](C)N)C(=O)N[C@@H](CO)C(=O)NCC(=O)N[C@@H](CO)C(=O)N[C@@H](CC(C)C)C(=O)N[C@H](C(=O)N[C@H](C(=O)N[C@@H](CC(C)C)C(=O)N[C@@H](Cc1ccccc1)C(=O)NCC(=O)N[C@@H](Cc1ccc(O)cc1)C(=O)N[C@@H](CCCNC(=N)N)C(=O)N[C@@H](CCCCN)C(=O)N[C@@H](CCCNC(=N)N)C(=O)N[C@@H](CCCCN)C(=O)N[C@@H](CCCNC(=N)N)C(=O)N[C@@H](CCCCN)C(N)=O)[C@@H](C)O)C(C)C
MIC (checkerboard; 24 h, 37 °C, alone, azithromycin plate): 32 µM

CC[C@H](C)[C@H](NC(=O)CN)C(=O)NCC(=O)N[C@@H](CCCCN)C(=O)N[C@@H](Cc1ccccc1)C(=O)N[C@@H](CC(C)C)C(=O)N[C@@H](Cc1c[nH]cn1)C(=O)N[C@@H](CO)C(=O)N[C@@H](C)C(=O)N[C@@H](CCCCN)C(=O)N[C@@H](CCCCN)C(=O)N[C@@H](Cc1ccccc1)C(=O)NCC(=O)N[C@@H](CCCCN)C(=O)N[C@@H](C)C(=O)N[C@@H](Cc1ccccc1)C(=O)N[C@H](C(=O)NCC(=O)N[C@@H](CCC(=O)O)C(=O)N[C@H](C(=O)N[C@@H](CCSC)C(=O)N[C@@H](CC(N)=O)C(=O)N[C@@H](CO)C(=O)O)[C@@H](C)CC)C(C)C
MIC (broth dilution; K12 BW25113; 18 h, 37 °C): 38 µM

CC1(C)S[C@@H]2[C@H](NC(=O)[C@H](N)c3ccc(O)cc3)C(=O)N2[C@H]1C(=O)O
MIC (broth microdilution; BL21(DE3), Mueller-Hinton broth; 20 h): 1.59 µM

CC1(C)SC2C(NC(=O)C(NC(=O)C3=C(O)C4(CC4)NC3=O)c3ccccc3)C(=O)N2C1C(=O)O (stereo not drawn)
MIC (broth microdilution; isolate IU 356 A, KPC-3, VIM-1, TEM; together with: clavulanic acid 6 µg/mL): > 200 µg/mL

NC(=O)[C@@H]1CC[C@@H]2CN1C(=O)N2OS(=O)(=O)O
MIC (broth microdilution; 13-1, NDM-positive; compound alone): 16 µg/mL

CC[C@H](C)[C@H](N)C(=O)N[C@@H](CC(C)C)C(=O)NCC(=O)N[C@H](CCCNC(=N)N)C(=O)N[C@H](C(=O)N[C@@H](Cc1c[nH]c2ccccc12)C(=O)N[C@@H](CCCCN)C(=O)NCC(=O)N[C@H](C(=O)N[C@@H](CCCCN)C(=O)N[C@@H](CC(=O)O)C(=O)N[C@H](C(=O)N[C@@H](CC(C)C)C(N)=O)[C@@H](C)CC)[C@@H](C)CC)[C@@H](C)CC
MIC (broth microdilution; ATCC 25922; concentration not given, together with: BSA): 6.25 µM

CC[C@H](C)[C@H](NC(=O)[C@H](CCCNC(=N)N)NC(=O)[C@H](CCCCN)NC(=O)[C@H](Cc1c[nH]c2ccccc12)NC(=O)[C@H](CCC(N)=O)NC(=O)[C@H](Cc1ccccc1)NC(=O)[C@H](Cc1c[nH]c2ccccc12)NC(=O)[C@@H](NC(=O)[C@H](CCCCN)NC(=O)[C@@H](NC(=O)[C@H](CCC(N)=O)NC(=O)[C@@H](N)CCCNC(=N)N)[C@@H](C)CC)[C@@H](C)CC)C(=O)N[C@@H](CCCCN)C(=O)N[C@@H](Cc1c[nH]c2ccccc12)C(=O)N[C@@H](CCCNC(=N)N)C(=O)N[C@@H](CCCNC(=N)N)C(=O)O
MIC (ATCC 25922): 0.75 µM

C[C@@H](O)[C@H]1C(=O)N2C(C(=O)O)=C(SCCN=CN)C[C@H]12
MIC (DH5a clone with KPC-100): 1 µg/mL

CC(C)C[C@H](NC(=O)[C@H](Cc1c[nH]c2ccccc12)NC(=O)[C@H](CC(C)C)NC(=O)[C@@H](NC(=O)[C@H](CC(C)C)NC(=O)[C@H](CCCNC(=N)N)NC(=O)[C@@H](N)CCCNC(=N)N)[C@@H](C)O)C(=O)N[C@H](C(=O)N[C@@H](CC(C)C)C(=O)N[C@@H](CCCNC(=N)N)C(=O)N[C@@H](CCCNC(=N)N)C(N)=O)[C@@H](C)O
MIC (broth microdilution; 25922, Mueller-Hinton broth; 24 h, 37 °C, lowest concentration, 95% inhibition, together with: BSA): 4 µM

CC(C)Oc1c(NC(=O)c2ccc(NC(=O)[C@H](CC(N)=O)NC(=O)c3ccc(NC(=O)c4ccc(C#N)cc4)cc3)cc2)ccc(C(=O)N/N=C/c2ccc(C(=O)O)s2)c1O
MIC (BW25113; 18 h, 37 °C, dark-adapted state): 0.03 µg/mL

CC(C)(C)Oc1ccc(CC2NC(=O)C(C(=O)NC(C(=O)NC3C(=O)N4C3SC(C)(C)C4C(=O)O)c3ccccc3)=C2O)cc1 (stereo not drawn)
MIC (broth microdilution; JW0790-2 fiu deletion mutant; ferric iron uptake gene): 25 µg/mL

CC1=C(C(=O)O)N2C(=O)[C@@H](NC(=O)[C@H](N)c3ccccc3)[C@H]2SC1
MIC (BL21(DE3) wild type): 6.25 µg/mL

CC[C@H](C)[C@H](NC(=O)CNC(=O)[C@H](CC(=O)O)NC(=O)[C@H](CCCNC(=N)N)NC(=O)[C@@H](NC(=O)[C@H](CC(N)=O)NC(=O)[C@H](CCCNC(=N)N)NC(=O)CNC(=O)[C@@H](NC(=O)[C@H](CCCCN)NC(=O)[C@H](CCC(=O)O)NC(=O)[C@@H](NC(=O)[C@H](CCCCN)NC(=O)[C@H](CCC(=O)O)NC(=O)[C@H](Cc1ccccc1)NC(=O)[C@@H](NC(=O)[C@H](CCCCN)NC(=O)[C@H](Cc1c[nH]c2ccccc12)NC(=O)[C@@H](N)CCCNC(=N)N)[C@@H](C)CC)[C@@H](C)CC)C(C)C)C(C)C)C(=O)N[C@H](C(=O)N[C@@H](CCCCN)C(=O)N[C@@H](C)C(=O)NCC(=O)N1CCC[C@H]1C(=O)N[C@@H](C)C(=O)N[C@H](C(=O)N[C@@H](C)C(=O)N[C@H](C(=O)N[C@H](C(=O)NCC(=O)N[C@@H](CCC(N)=O)C(=O)N[C@@H](C)C(=O)N[C@@H](C)C(=O)N[C@H](C(=O)N[C@H](C(=O)N[C@H](C(=O)N[C@@H](CCCCN)C(N)=O)C(C)C)C(C)C)[C@@H](C)O)C(C)C)C(C)C)C(C)C)[C@@H](C)CC
MIC (K1 ATCC 700973, Mueller-Hinton broth; 16 h, 37 °C; growth inhibition over 99%): 32 µM

CC[C@H](C)[C@H](NC(=O)[C@H](CCCNC(=N)N)NC(=O)[C@H](CCC(N)=O)NC(=O)[C@@H](NC(=O)[C@@H](NC(=O)[C@H](CCCNC(=N)N)NC(=O)[C@@H](N)CCCNC(=N)N)[C@@H](C)CC)C(C)C)C(=O)N[C@@H](CCCNC(=N)N)C(=O)N[C@@H](CC(=O)O)C(=O)N[C@@H](Cc1ccccc1)C(=O)N[C@@H](CC(C)C)C(=O)N[C@@H](CCCNC(=N)N)C(N)=O
MIC (broth microdilution; K12; 16 h, 37 °C): 30 ± 11 µM

Repeated from above:
CC1(C)SC2C(NC(=O)C(NC(=O)C3=C(O)C4(CC4)NC3=O)c3ccccc3)C(=O)N2C1C(=O)O (stereo not drawn)
MIC (broth microdilution; isolate IU 356 A, KPC-3, VIM-1, TEM; together with: clavulanic acid 6 µg/mL): > 200 µg/mL

NC(=O)[C@@H]1CC[C@@H]2CN1C(=O)N2OS(=O)(=O)O
MIC (broth microdilution; 13-1, NDM-positive; compound alone): 16 µg/mL

CC[C@H](C)[C@H](N)C(=O)N[C@@H](CC(C)C)C(=O)NCC(=O)N[C@H](CCCNC(=N)N)C(=O)N[C@H](C(=O)N[C@@H](Cc1c[nH]c2ccccc12)C(=O)N[C@@H](CCCCN)C(=O)NCC(=O)N[C@H](C(=O)N[C@@H](CCCCN)C(=O)N[C@@H](CC(=O)O)C(=O)N[C@H](C(=O)N[C@@H](CC(C)C)C(N)=O)[C@@H](C)CC)[C@@H](C)CC)[C@@H](C)CC
MIC (broth microdilution; ATCC 25922; concentration not given, together with: BSA): 6.25 µM
